Experimental data pooled from the literature.
Each line is one published result; not all experiments were run side by side.
FKBP3: FKBP3 1-74 (Homo sapiens, UniProt Q00688)
Bhlhe40 full length assumed: Bhlhe40 full length assumed (Mus musculus, UniProt O35185)
UniProt O35185, sequence (whole entry, looked up): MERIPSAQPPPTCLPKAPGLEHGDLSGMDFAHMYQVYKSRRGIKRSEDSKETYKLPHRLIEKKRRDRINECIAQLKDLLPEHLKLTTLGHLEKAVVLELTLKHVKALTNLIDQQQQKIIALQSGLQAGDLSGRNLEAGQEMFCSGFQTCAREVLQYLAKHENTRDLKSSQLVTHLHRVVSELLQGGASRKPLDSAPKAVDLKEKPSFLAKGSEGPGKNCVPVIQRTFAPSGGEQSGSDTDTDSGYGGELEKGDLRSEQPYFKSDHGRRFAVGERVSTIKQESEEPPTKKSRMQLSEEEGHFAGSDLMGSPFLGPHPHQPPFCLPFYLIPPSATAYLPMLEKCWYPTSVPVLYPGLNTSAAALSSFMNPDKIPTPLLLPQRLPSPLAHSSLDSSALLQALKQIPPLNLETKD
Unk: Unk 1-810 (Mus musculus, UniProt Q8BL48)
UniProt Q8BL48, sequence (whole entry, looked up): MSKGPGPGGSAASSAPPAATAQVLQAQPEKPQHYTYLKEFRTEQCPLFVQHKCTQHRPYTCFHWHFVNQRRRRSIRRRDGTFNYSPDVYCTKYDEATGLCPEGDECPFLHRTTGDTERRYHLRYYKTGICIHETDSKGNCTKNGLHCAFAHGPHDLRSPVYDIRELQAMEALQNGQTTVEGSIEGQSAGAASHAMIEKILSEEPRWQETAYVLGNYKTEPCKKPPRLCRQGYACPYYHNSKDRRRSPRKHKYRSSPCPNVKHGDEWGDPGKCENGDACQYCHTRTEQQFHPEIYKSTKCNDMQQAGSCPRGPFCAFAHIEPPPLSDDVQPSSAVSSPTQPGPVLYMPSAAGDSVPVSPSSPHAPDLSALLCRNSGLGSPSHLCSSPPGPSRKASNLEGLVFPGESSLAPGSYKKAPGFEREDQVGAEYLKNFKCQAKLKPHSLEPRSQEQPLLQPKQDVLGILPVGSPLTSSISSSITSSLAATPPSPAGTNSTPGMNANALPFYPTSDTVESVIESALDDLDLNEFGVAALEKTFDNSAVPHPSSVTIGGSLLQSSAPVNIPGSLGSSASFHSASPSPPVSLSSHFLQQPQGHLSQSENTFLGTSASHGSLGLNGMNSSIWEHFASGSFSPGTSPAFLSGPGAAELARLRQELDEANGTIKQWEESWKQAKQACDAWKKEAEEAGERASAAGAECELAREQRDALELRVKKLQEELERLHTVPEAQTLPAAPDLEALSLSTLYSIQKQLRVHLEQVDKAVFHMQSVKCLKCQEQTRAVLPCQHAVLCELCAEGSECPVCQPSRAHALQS
UniProt O75417, sequence (whole entry, looked up): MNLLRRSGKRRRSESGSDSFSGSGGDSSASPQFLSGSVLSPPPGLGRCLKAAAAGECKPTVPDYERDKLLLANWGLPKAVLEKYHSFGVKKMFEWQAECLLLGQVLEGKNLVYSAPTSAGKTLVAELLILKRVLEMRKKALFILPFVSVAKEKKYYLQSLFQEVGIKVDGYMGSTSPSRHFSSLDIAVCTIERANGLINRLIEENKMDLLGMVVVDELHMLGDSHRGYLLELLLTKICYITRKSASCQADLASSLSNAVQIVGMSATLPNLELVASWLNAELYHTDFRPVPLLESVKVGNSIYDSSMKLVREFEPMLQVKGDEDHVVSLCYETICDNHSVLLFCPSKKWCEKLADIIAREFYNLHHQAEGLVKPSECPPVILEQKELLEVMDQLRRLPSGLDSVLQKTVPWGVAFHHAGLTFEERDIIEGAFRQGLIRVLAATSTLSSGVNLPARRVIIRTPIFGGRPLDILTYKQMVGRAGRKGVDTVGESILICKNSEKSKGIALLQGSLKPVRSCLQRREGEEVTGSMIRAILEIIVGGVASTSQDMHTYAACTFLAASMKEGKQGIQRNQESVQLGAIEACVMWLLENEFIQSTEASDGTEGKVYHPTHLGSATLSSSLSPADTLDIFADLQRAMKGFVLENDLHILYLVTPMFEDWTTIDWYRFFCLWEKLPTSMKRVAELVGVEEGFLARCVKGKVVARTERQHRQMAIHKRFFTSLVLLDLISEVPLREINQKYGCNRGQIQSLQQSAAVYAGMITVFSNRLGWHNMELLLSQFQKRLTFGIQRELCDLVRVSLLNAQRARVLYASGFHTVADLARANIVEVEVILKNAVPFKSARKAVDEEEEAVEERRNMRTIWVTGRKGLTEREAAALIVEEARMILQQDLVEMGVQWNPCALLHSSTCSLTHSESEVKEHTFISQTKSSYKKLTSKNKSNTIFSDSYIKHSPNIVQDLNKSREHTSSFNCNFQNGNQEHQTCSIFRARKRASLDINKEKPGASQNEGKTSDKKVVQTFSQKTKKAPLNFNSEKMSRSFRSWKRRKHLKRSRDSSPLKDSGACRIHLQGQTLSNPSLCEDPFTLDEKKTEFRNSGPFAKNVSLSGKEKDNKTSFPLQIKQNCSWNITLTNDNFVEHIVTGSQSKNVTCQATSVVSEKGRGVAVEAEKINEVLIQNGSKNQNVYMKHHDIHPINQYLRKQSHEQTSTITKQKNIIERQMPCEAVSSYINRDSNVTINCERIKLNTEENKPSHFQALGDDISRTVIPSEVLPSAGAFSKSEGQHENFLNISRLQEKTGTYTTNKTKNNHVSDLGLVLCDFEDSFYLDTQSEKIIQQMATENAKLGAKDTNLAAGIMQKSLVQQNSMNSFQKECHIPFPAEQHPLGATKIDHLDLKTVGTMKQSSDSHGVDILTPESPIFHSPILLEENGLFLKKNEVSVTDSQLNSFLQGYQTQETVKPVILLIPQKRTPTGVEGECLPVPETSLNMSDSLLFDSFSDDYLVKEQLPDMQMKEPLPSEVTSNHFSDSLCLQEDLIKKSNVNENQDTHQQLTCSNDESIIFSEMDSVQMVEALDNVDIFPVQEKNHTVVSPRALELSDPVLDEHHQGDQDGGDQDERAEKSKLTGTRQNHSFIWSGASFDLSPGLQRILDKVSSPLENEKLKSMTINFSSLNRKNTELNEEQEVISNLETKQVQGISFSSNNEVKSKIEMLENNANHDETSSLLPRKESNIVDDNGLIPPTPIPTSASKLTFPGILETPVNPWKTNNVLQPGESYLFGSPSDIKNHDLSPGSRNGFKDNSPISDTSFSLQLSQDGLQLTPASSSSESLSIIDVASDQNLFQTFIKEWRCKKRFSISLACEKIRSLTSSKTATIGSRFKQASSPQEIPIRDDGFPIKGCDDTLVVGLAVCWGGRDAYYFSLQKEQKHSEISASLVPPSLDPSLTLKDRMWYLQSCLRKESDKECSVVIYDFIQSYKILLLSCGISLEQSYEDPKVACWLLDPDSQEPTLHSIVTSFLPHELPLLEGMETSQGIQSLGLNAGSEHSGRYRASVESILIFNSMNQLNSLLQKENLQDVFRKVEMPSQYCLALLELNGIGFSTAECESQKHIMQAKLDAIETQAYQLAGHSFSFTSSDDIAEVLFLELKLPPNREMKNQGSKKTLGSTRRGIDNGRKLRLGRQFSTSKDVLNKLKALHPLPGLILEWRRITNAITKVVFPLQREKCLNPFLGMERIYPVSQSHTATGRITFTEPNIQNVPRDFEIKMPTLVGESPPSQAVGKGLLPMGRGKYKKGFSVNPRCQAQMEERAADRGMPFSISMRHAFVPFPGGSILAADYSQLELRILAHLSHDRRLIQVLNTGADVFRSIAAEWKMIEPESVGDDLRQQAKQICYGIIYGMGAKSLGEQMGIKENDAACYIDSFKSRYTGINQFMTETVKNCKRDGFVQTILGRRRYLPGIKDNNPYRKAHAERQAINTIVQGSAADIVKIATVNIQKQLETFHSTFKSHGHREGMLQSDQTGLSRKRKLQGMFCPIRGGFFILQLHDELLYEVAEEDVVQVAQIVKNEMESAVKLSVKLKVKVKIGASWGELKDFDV
UniProt Q9C5T3, sequence (whole entry, looked up): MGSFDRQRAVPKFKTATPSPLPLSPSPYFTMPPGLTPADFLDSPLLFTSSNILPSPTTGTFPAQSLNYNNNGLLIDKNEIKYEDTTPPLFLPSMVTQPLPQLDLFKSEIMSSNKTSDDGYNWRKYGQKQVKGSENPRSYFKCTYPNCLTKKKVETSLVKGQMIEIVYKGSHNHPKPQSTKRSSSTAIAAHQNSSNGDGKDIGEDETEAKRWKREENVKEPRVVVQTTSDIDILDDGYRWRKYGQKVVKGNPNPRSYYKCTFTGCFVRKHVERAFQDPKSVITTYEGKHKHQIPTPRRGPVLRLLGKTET
UniProt P05549, sequence (whole entry, looked up): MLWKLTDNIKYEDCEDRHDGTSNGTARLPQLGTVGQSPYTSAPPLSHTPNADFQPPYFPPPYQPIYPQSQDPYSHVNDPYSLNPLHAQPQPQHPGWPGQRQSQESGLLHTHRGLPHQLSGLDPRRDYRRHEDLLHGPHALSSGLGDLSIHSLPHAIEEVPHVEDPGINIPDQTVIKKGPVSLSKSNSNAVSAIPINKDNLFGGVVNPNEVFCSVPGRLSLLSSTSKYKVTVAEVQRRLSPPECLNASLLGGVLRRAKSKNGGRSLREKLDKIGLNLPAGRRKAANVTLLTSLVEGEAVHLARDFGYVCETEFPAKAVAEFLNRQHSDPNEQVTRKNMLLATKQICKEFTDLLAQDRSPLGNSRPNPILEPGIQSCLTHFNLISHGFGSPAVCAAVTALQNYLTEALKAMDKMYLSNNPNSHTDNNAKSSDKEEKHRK

DNA 1 CCAACCGACCACACCCACCACCCTACCGCCTTTTTTTTTCCCGGG / DNA 2 GGCGGTAGGGTGGTGGGTGTGGTCGGTTGG (dsDNA; 3' overhang, 30 bp duplex) — binding (POLQ 1-894 (Homo sapiens, UniProt O75417); fluorescence anisotropy; double-stranded DNA; together with: Mg2+ 5 mM): binds
GAUGGAGAUGGGCCCAUGAAUUGCCGGCCGCUUUAAUC (ssRNA) — binding (KHSRP full length assumed (Homo sapiens, UniProt Q92945); UV crosslinking; RNA): no binding
RNA 1 GACGCGUC / RNA 2 GACGCGUC (dsRNA 8 bp palindromic duplex) — binding (FKBP3; NMR; double-stranded RNA): binds
TGTTTTGACCATTTATTAAAATGAACCTTTTCTTGTCAAACAT (dsDNA) — binding (WRKY26 full length assumed (Arabidopsis thaliana, UniProt Q9C5T3); EMSA; double-stranded DNA, one strand shown): binds
GGAUGCCG (ssRNA) — binding (FKBP3; NMR; RNA): no binding
TGCTGATTGGCCATGTGCGCTACACCGAGGGGCGGGG (dsDNA) — binding (Bhlhe40 full length assumed; competition with unlabelled DNA, competition EMSA; double-stranded DNA, one strand shown; not purified): binds
TGTATCGTCTTG (dsDNA (Trichomonas vaginalis); 12-mer duplex) — binding (MYB21 40-156 (Trichomonas vaginalis, UniProt Q58HP3); NMR; double-stranded DNA, one strand shown): binds
ACUCCCAAUUAUUAAUGA (ssRNA) — binding (Unk; EMSA; RNA): no binding
CTGAAGTAATACCCCAGGATGTGAACAT (dsDNA) — binding (TFAP2A full length assumed (Homo sapiens, UniProt P05549); competitor, competition; double-stranded DNA, one strand shown; unlabeled excess): binds
ACGUAGAAAAUUUGCAGCU (ssRNA) — binding (Unk; EMSA; RNA): binds
TGCTGATTGGCCATGTGCGCTCACCCGAGGGGCGGGG (dsDNA) — binding (Bhlhe40 full length assumed; EMSA; double-stranded DNA, one strand shown; not purified): binds
GGATGCCG (ssDNA) — binding (FKBP3; NMR; single-stranded DNA): no binding

Repeated from above:
TGCTGATTGGCCATGTGCGCTCACCCGAGGGGCGGGG (dsDNA) — binding (Bhlhe40 full length assumed; EMSA; double-stranded DNA, one strand shown; not purified): binds
